Published values gathered from unrelated publications.
A part holds a random share of what one study measured. Positions count from the first letter of the parent shown.
UniProt Q9C7I9, sequence (whole entry, looked up): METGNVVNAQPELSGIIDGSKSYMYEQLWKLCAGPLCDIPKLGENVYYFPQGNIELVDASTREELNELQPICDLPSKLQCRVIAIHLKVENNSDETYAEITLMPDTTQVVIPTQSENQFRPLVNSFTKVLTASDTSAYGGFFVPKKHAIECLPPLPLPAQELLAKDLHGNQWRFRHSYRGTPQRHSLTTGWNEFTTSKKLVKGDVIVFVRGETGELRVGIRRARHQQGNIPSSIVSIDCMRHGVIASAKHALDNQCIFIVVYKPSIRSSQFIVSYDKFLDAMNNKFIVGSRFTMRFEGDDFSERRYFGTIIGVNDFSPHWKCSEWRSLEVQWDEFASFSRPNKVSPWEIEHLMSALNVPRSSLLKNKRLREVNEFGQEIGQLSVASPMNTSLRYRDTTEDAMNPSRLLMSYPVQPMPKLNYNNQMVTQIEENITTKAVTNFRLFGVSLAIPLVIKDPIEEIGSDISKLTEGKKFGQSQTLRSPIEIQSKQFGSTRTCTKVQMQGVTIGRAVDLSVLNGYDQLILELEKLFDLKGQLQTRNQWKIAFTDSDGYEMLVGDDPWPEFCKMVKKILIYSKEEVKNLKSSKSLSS
UniProt Q8LAL2, sequence (whole entry, looked up): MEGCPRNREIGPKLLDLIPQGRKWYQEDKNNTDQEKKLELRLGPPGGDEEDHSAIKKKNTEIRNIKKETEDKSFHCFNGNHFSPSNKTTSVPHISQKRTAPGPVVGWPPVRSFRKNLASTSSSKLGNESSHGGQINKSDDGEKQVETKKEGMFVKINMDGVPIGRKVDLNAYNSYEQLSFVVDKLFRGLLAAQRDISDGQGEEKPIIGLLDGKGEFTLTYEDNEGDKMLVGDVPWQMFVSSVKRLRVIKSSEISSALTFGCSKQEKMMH
UniProt P93024, sequence (whole entry, looked up): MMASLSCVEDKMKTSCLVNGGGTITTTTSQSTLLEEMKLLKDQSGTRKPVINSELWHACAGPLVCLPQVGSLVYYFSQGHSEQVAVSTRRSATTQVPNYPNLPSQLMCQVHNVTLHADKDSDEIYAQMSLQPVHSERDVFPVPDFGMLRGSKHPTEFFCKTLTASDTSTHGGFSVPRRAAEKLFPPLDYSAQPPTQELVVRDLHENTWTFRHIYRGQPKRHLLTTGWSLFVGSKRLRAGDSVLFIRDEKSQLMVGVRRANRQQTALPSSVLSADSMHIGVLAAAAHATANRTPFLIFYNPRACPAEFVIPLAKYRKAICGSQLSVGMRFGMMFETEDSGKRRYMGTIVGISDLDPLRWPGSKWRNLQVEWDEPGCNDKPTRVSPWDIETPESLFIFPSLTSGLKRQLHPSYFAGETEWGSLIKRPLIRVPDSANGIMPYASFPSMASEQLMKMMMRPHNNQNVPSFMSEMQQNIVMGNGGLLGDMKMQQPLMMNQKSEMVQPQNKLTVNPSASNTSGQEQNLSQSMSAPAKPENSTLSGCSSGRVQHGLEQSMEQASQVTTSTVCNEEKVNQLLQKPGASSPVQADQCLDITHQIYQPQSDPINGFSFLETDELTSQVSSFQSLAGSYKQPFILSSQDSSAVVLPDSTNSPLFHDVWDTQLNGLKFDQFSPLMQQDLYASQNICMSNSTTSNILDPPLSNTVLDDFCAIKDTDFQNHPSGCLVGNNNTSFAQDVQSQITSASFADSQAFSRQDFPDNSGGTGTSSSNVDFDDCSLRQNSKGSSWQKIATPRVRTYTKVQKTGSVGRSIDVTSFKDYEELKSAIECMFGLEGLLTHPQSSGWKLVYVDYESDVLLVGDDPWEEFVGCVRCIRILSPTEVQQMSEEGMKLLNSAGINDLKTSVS
UniProt Q9C8N7, sequence (whole entry, looked up): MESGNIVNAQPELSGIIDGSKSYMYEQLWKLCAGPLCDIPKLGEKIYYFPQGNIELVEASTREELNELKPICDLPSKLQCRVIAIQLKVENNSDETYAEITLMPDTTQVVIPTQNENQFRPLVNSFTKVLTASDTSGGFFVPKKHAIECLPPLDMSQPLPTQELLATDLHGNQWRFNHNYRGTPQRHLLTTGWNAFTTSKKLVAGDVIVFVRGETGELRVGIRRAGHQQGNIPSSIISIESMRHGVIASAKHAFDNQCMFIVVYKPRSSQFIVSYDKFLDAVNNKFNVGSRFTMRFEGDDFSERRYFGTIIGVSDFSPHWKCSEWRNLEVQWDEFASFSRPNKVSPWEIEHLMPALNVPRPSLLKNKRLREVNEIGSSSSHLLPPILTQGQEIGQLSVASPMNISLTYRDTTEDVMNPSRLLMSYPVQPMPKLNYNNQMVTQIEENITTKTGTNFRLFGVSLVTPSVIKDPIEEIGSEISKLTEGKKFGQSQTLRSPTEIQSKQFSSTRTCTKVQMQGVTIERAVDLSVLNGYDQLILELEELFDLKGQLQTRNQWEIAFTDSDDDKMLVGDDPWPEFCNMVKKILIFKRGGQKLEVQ
UniProt Q9C966, sequence (whole entry, looked up): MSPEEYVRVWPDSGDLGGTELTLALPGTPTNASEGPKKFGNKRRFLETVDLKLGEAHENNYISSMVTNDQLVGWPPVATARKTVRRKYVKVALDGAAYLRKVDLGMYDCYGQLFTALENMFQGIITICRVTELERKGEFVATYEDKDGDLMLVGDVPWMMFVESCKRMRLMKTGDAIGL
UniProt Q84WU6, sequence (whole entry, looked up): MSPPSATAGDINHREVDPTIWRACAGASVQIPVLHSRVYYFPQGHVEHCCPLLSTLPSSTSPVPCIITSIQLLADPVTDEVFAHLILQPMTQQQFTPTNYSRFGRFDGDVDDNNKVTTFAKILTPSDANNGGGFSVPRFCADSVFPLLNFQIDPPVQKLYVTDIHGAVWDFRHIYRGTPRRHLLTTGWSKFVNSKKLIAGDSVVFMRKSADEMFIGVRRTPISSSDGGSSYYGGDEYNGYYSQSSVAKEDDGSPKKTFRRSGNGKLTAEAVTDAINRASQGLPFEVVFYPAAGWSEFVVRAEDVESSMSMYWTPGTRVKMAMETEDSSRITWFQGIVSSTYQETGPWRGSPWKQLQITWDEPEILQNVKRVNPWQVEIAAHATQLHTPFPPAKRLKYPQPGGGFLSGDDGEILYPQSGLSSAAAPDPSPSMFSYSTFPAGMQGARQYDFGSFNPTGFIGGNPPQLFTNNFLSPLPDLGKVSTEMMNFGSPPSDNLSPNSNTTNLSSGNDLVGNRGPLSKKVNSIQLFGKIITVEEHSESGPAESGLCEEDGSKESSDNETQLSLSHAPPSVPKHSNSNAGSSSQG
UniProt Q9ZPY6, sequence (whole entry, looked up): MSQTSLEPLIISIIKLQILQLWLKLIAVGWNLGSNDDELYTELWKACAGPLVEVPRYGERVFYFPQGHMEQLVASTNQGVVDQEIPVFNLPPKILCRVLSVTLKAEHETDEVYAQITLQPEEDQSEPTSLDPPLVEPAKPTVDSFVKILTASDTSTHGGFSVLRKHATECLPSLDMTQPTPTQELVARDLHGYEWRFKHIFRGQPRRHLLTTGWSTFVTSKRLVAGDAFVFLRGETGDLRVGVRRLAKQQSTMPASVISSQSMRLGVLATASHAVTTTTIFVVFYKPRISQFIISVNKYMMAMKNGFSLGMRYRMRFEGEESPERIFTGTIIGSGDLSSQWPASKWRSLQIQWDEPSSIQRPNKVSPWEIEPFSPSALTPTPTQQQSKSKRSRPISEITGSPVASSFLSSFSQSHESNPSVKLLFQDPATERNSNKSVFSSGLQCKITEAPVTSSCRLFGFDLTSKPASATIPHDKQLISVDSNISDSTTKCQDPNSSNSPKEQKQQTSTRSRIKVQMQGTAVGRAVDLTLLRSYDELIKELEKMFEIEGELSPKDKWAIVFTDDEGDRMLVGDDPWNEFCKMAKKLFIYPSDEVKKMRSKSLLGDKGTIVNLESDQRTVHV

Set 1
Target: CCND2, cyclin fold, Cln2 fusion (human)
Method: yeast growth competition, sequencing
Medium: yeast
Setting: strong parent motif
Baseline: not given
Reading: higher = stronger binding
Parent: viral docking peptide; YKVKRRLVFGADD
Change	normalised enrichment score
R6N	0.297
V8K	0.708
D12E	1
R5H	0.285
F9S	0.145
K2A	0.798
D12Q	1
R6V	0.481
F9E	0.33
L7T	-0.0443
K2W	0.253
R5P	0.3
K4C	2.2
K4E	0.524

Set 2
Molecule: B1 (IAA4)
Method: two-hybrid
Baseline: out of 4 tests
Reading: higher = firmer interaction
B1: IAA4 (Arabidopsis thaliana, UniProt P33077); chain MEKVDVYDELVNLKATELRLGLPGTEETVSCGKSNKRVLPEATEKEIESTGKTETASPPKAQIVGWPPVRSYRKNNVQTKKSESEGQGNYVKVSMDGAPYLRKIDLTMYKQYPELMKSLENMFKFSVGEYFEREGYKGSDFVPTYEDKDGDWMLVGDVPWEMFVSSCKRLRIMKGSEVKGLGCGGL
partner	setting	positive tests
IAA26 (Arabidopsis thaliana, UniProt Q8LAL2)		1
IAA15 (Arabidopsis thaliana, UniProt Q9C966)		3
ARF11 500-622 (Arabidopsis thaliana, UniProt Q9ZPY6)		0
IAA7 (Arabidopsis thaliana, UniProt Q38825)		1
ARF17 (Arabidopsis thaliana, UniProt Q84WU6)	weak activation fusion	0
ARF22 498-598 (Arabidopsis thaliana, UniProt Q9C8N7)		0
ARF5 788-902 (Arabidopsis thaliana, UniProt P93024)		4
ARF20 484-590 (Arabidopsis thaliana, UniProt Q9C7I9)		0

Set 3
Target: HLA class I histocompatibility antigen, A alpha chain, allele A*80:01 (Homo sapiens, UniProt P04439)
Observed: peptide-MHC binding
Form: peptide
Concentration: concentration not given
Molecule	binding
YENAVWDQY	inactive
VRDVVMPAL	inactive
GIALAVPCV	inactive
GTGDSRLTY	inactive
WDAYIPHYV	inactive
KSSLEVYIY	inactive

Set 4
Target: PABPC1L2, full length, GST fusion (mouse, UniProt A0ABA7IW68)
Method: RNAcompete
Form: RNA
Medium: in vitro
Concentration: 20 nM
Setting: 7-mer, probes averaged, single round
Baseline: mean of 7-mers
Reading: higher = stronger binding
Residues (chain): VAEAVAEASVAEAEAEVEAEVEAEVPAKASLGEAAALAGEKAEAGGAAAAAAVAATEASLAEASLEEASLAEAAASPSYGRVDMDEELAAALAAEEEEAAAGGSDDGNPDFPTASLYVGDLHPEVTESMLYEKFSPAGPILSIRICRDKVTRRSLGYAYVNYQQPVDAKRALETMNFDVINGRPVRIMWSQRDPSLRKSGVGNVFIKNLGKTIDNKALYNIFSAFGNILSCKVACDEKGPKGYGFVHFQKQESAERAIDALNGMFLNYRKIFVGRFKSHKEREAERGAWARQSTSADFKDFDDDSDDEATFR
Strand	7-mer Z-score
GGGUUCC	-0.0935
AUGUCCG	-0.173
AAUUUCC	-0.11
CCGCGAG	-0.371
GCAAACU	0.0352
AUAACUU	-0.0609
AGAGGGU	0.0225
GACGUAU	-0.246
